# Assay results of several laboratories.
# Every numbered part comes from another study and shows a few of its results, in no order.

# Set 1 — technique: RNA Bind-n-Seq; form: RNA; matrix: in vitro; concentration: 200 nM; setting: whole 134-nt RNA, ends assumed; together with: 150 mM LiCl; relative to: input library; reading: higher = stronger binding; all molecules: 7-deaza-guanosine replaces G
# Target: Fragile X messenger ribonucleoprotein 1, C-terminal low-complexity region (Fmr1, Mus musculus, UniProt P35922)
# All sequences stand within: GGGAGUUCUACAGUCCGACGAUC … UGGAAUUCUCGGGUGUCAAGG
Oligonucleotide,log2 enrichment
UUUGGUUAUGAACAGGAUUCGGAUUCACGUCUUGCCAACCAAUCGGGGGAGGAUCACUCCAGUGCCCAGGUCUCAGGAACCUCUGUCUUG,0.0833
UGCGAUAUGAACGUUCACAAGCAAUGCGUCAUCAAUGUCCCCAGCCUCUGCGGAAUGGAUCACACUGAGAAGAGGGGGCGGAUUUACCUA,-0.771
UCCUGUGCUACACAUCGUAUGUACCGAAUCGGGUUUUUGGGAAAAAGGGAAAAAAAGGGAAAGUAUUAUGUUACGCCGUUCGGAUCUGCA,-0.794
UCCUGUGCUACACAUCGUAUGUACCGAAUCAAAUUUUUAAACCCCCCCAAACCCCCAAAAAAGUAUUAUGUUACGCCGUUCGGAUCUGCA,1.85
GUCCUGUGCUACACAUCGUAUGUACCGAAUCGGGAAAAAAAGGGUUUUUUUGGGAGGGAAAGUAUUAUGUUACGCCGUUCGGAUCUGCAC,-1.8
UGGGAGGUGGAUUUUGUUUAUUUUUUUAGCUCAUGUCCAGGGGUGGGAAUUUUUUUUUAAUAUGUGUCAUGAAUAAAGUUGUUUUUGAAA,-0.0511
CUCAAGUCCUGUGCUACACAUCGUAUGUACCGAAUCGGAAAGGAAAGGAAAGGAAAGUAUUAUGUUACGCCGUUCGGAUCUGCACUUCCA,-0.301

# Set 2 — technique: aptamer microarray, sandwich; form: DNA with 2'F-ANA; matrix: in vitro; concentration: 200 nM; together with: Cy3 exosite-II aptamer, 400 nM; reading: higher = stronger binding; oligonucleotide: GGTTGGTGTGGTTGG
# Target: Prothrombin, mature alpha-thrombin (F2, Homo sapiens, UniProt P00734)
# Setting: whole 15-mer aptamer, many near background
Modification,mean fluorescence intensity
2'F-ANA at 1 2 4 5 7 12 13 15,73.9 a.u.
2'F-ANA at 1 3 5 7 8 12 15,196 a.u.
2'F-ANA at 1 3 4 5 6 11 12 13,170 a.u.
2'F-ANA at 1 2 5 6 9 10 11 15,45.5 a.u.
2'F-ANA at 2 4 11 12 14 15,132 a.u.
2'F-ANA at 1 7 11 14 15,68.5 a.u.
2'F-ANA at 1 2 3 4 5 6 8 9 11 12 15,105 a.u.
2'F-ANA at 1 2 4 5 6 7 8 10 13 15,49.2 a.u.
2'F-ANA at 3 7 9 10 11 12 14,453 a.u.
2'F-ANA at 1 5 6 9 10 12 13,60.1 a.u.
2'F-ANA at 6 7 11 14,187 a.u.

# Set 3 — technique: protein-binding microarray; form: double-stranded DNA, one strand shown; matrix: in vitro; concentration: 2200 nM top; setting: 60-bp whole probe; together with: salmon DNA 0.4 mg/ml; relative to: random background probes; reading: higher = stronger binding; all sequences stand within: GCCTAGCAC … GTCTTGATTCGCTTGACGCTGCTG
# Target: Interferon regulatory factor 7, full length, phosphomimetic (IRF7, Homo sapiens, UniProt Q92985, residues 1-503, S471D/S472D/S475D/S476D/S477D/S483D/S484D/S487D)
# Residues (chain): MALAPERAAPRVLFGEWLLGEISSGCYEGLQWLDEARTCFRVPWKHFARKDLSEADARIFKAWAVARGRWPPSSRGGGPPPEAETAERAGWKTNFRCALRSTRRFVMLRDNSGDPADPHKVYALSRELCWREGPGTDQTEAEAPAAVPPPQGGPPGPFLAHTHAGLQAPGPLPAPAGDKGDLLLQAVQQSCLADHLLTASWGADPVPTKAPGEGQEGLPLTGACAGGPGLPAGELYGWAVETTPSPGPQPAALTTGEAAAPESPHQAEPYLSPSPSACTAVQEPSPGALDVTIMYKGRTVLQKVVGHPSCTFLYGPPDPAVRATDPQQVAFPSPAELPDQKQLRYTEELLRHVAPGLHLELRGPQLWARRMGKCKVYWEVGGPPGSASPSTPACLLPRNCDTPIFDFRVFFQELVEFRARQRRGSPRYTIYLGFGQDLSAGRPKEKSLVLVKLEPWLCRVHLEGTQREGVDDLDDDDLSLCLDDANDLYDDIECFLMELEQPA
Oligonucleotide,fitted relative affinity [z-score]
TTAGGTATCGGGTTGCGGTTAGTGCTA,1.45
TTAGGTTTCGGGTCCGGTTAGTGCTAG,6.56
TTAGGTTACGGTATCGGTTAGTGCTAG,0.952
ATTGTTTCCTTCCTCTTTTAGTGCTAG,3.75
TTAGGTATCGCGTATCGGTTAGTGCTA,0.566
GACGATATCCTTTTCCTGACGTGCTAG,1.52
GACGGACTGGACGTTCGGGACGTGCTA,-0.544
TTAGGACTGGGGTTTCGCTTAGTGCTA,1.4
TTAGATATCGGGCTTCGATTAGTGCTA,-0.176
GACGATATCGGGACTGGAGAAGTGCTA,-0.303
GACGATATCGGTTATCGAGACGTGCTA,0.213
TTAGGACTGAACTATCGGTTAGTGCTA,-0.384

# Mixed results
Substance,target,assay,system,conditions,how to read,endpoint,value
"PhoQ, residues 284 288 289 292 302 303 NLALSC","PhoP, residues 12 14 15 18 19 VQALL (Escherichia coli, UniProt P23836)","Sort-seq, item: YFP reporter",E. coli,"PhoQ-PhoP variant library, together with: 10 µM Mg2+","relative to: high Mg2+ state, higher = stronger signaling",fold induction,1.36

# Repeated from above (set 3):
Oligonucleotide,fitted relative affinity [z-score]
ATTGTTTCCTTCCTCTTTTAGTGCTAG,3.75
TTAGGTATCGCGTATCGGTTAGTGCTA,0.566
